Measured values pooled from the literature.
Every numbered part comes from another study and shows a few of its results, in no order. Positions count from the first letter of the parent shown.

Study 1
Target: Ras GTPase-activating protein-binding protein 1, C-terminal RGG region (G3BP1, Homo sapiens, UniProt Q13283)
Sequence of UniProt Q13283 (whole entry, looked up): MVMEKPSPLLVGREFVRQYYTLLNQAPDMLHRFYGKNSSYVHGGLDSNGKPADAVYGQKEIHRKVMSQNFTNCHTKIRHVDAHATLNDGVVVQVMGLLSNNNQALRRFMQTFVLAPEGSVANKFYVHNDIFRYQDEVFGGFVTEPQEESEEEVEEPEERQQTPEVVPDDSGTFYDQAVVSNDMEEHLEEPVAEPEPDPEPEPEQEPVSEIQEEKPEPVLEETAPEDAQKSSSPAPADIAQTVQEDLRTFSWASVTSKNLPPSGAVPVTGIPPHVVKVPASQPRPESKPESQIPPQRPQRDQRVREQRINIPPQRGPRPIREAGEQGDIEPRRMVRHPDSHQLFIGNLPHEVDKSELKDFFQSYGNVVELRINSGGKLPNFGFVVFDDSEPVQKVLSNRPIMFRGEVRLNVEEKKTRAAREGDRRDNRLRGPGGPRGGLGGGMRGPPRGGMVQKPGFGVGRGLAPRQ
Method: RNA Bind-n-Seq
Form: RNA
Matrix: in vitro
Tested at: 1 µM
Setting: whole 134-nt RNA, ends assumed
With: 150 mM KCl
Baseline: input library
Direction: higher = stronger binding
Strand	log2 enrichment
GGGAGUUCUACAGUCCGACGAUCAGUCCUGUGCUACACAUCGUAUGUACCGAAUCGGGAAAGGGUUUUUGGGUUUUUGGGAAAGUAUUAUGUUACGCCGUUCGGAUCUGCACUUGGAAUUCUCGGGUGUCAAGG	0.079
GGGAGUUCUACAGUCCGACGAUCCAAACUUAAAGUCUCCCUUGCUCGGAAGAAGCCUCCAAUGAACAGUAUGCGGGGUGGUCUGCCACCCCGUGAGGGCAGAGGCAUGCCACCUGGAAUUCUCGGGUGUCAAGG	-1.04
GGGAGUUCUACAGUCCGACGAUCUCAAGUCCUGUGCUACACAUCGUAUGUACCGAAUCGGUUUUUGGAAAAAGGUGGAAAGUAUUAUGUUACGCCGUUCGGAUCUGCACUUCCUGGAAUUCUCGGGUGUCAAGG	-1.07
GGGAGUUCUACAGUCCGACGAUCGGUGUUGCUGGAAGAAGCCAAGGAUUUGCUCUCUGACUGGCUGGAUUCUACACUUGGCUGUGAUGUCACUGACAAUUCCAUCUUCUCCAAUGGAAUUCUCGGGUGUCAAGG	0.338
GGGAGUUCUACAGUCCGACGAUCUCCUCAAGUCCUGUGCUACACAUCGUAUGUACCGAAUCGGAGGGGAGGAGGAAAGUAUUAUGUUACGCCGUUCGGAUCUGCACUUCCAGCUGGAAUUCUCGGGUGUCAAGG	-1.35
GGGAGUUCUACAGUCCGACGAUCUUUACAAAUAUGCCCAAGACUUCUUGGUGGCUAUUGCAGAGCCAGUGUGCCGACCAACCCAUGUGCAUGAGUACAAACUAACUGCCUACUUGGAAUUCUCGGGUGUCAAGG	-0.346
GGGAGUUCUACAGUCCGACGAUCUCCUGUGCUACACAUCGUAUGUACCGAAUCGGCCCCCCGGGGCCCCCCGGGGCCCCCCGGAAAGUAUUAUGUUACGCCGUUCGGAUCUGCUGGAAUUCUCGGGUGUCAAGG	-1.37
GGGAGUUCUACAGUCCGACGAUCCCUGUGCUACACAUCGUAUGUACCGAAUCGGGGAAAAAGGGGAAAAAAAGGGGUUUGGGGAAAGUAUUAUGUUACGCCGUUCGGAUCUGCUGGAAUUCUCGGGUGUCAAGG	0.642
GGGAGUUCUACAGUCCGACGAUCACCAUGCAGGUGGGCAUCUUUGGGAAGUGGGGCAAGGGGGGGAUAGGGAGGCGGGUAACACUUUGGGAACAGGUGGUCCCAGGUCGUUUCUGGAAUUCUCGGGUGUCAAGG	2.03
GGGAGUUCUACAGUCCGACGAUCGUCCUGUGCUACACAUCGUAUGUACCGAAUCGGGAGGGUUUUUUUGGGUUUUUUUGGGAAAGUAUUAUGUUACGCCGUUCGGAUCUGCACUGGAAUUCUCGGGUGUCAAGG	-0.445

Study 2
Target: JUND, bZIP domain (human)
Method: DHFR protein complementation
Matrix: yeast
Setting: single substitutions, most at no-binding floor
Baseline: wild-type JUN-FOS pair
Direction: higher = stronger binding
Starting sequence: JUN, bZIP domain (human); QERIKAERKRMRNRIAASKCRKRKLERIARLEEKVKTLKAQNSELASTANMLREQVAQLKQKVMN
Change	binding fitness
L38I	-1.52 natural log
N42Y	-1.3 natural log
E32F	-1.29 natural log
V35H	-1.46 natural log
L38H	-1.49 natural log
L31K	-1.45 natural log
L38N	-1.49 natural log
L59A	-1.28 natural log
I28Y	-1.3 natural log
I28N	-1.31 natural log
L59G	-1.5 natural log

Study 3
Target: Histone acetyltransferase KAT6A, winged helix 2, GST fusion (KAT6A, Homo sapiens, UniProt Q92794, residues 85-181)
Method: protein binding microarray
Form: double-stranded DNA, one strand shown
Matrix: in vitro
Tested at: not given
Setting: 8-mer, flanks averaged, mean of 2 arrays, mostly near background
Baseline: not given
Direction: higher = stronger binding
Residues (chain): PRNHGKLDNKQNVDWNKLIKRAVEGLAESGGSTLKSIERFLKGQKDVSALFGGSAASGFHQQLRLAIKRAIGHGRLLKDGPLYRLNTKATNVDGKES
Strand	E-score
AAATGTGA	-0.0814
ATCCCTCG	0.00358
AGGTGAAT	0.102
CGGTCGAA	0.0413
CTTGGCCA	0.00154
AAATACTG	-0.0529
TGCAGCCA	0.115
CGGGGTCC	0.0519
GCTCCACA	-0.064
CAAGTAGG	-0.0863
GACTCTGC	-0.0694
CATGCGGG	-0.0645
TGTTGTAA	-0.0282
CCAGACTA	0.0602
AGTAATTC	-0.139
CCACGACC	0.0403
GTACTCAC	0.0365
CGAGATGA	0.0477
TAACCAGA	-0.0824
CGATGGTC	-0.0811
CGTAACAA	0.0039
TACCCCGA	0.0459
GCGATCAC	0.0544
CACCTGCG	0.161
CACGTGAG	-0.183

Study 4
Target: RING finger protein unkempt homolog, zinc fingers 1-6, SBP tag (UNK, Homo sapiens, UniProt Q9C0B0, residues 30-357)
Sequence of UniProt Q9C0B0 (30-357, looked up): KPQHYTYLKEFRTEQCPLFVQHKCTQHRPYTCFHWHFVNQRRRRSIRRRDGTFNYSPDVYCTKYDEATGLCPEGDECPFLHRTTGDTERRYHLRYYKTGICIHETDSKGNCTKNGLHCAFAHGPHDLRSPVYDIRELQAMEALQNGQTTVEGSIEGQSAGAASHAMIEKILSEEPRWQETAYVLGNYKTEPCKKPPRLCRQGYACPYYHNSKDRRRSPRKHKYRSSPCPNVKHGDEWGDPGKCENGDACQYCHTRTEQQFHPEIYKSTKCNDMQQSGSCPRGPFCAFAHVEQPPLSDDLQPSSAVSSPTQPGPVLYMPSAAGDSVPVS
Method: RNA Bind-n-Seq
Form: RNA
Matrix: in vitro
Tested at: 100 nM
Setting: RNA with constant flanks, vertebrate orthologous sites, ends assumed
Baseline: input RNA pool
Direction: higher = stronger binding
Strand	bound/input enrichment [ratio]
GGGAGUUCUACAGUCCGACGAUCCUCUUUUCCAGGUUGGAUAUACUGGAAAAGUCAUAGGAAUUGAUCACAUUAAAGAGCUAGUAGAUGACUCAAUAAAUAAUGUCAGGAAGGACGAUCCAACACUUCUGUCUUCAGGGAGAGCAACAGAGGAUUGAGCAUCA	0.807
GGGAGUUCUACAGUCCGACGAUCAAAACCCCGAUUUUAGAUGUGAUAUCUAGGCUUUCAUUCCAGUUGUUUUUGUCUUUUGUUUAGAUACCACUUUUAAAUUCUUGCAUUUUAGUAAGAAAGCUAUCUUUUUAUGGAUGUUAGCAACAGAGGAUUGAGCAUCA	0.625
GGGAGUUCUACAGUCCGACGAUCGAUCUGGACCUUGGAGCCGAACCAGGGAGCUAGCAAAAGUAAAGCAGACUUGUAAAAUUAUAGCCAUAUGCAGCUGCACAGCAACAGCACUACCACUAGCAGCUGUGUUAAAGUAUUUAUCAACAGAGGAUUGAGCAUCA	0.689
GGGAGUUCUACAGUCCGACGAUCUUUGAGUUAGUUUUCCACAUUUUCUGUAAAUAAUGGAUAAUCUUUUUAAAGUUUAUUUUUAAGUGCUGUUUUAACAAUGCGGACAGACUAUAAAUGUACUUGCUGAAUUCAUUCAUUUUUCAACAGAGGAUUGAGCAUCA	0.282
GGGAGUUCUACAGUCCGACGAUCAUUUGUAGCCAUUUUUACAUGUUUCCUAGAAAUAAUGGAUAAUCAUUUUCUUUUCUUUUUAAGUGCUGCUUUAACAAUGUGAAUAUACUAUAAAUGUACUUGCUGAAUUCAUUCAUUUUUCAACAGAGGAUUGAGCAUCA	0.386
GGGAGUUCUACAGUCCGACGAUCGUUAGGCCAUGAAGCUUAUCGGUUAGGCCAUGAAGCUUAUAGGUUAGGGCAGGACCCUUAUAGAUUAGGCCAUGAUCCCUACAGACUAACUCCUGAUCCCUACAGAAUGUCUGCUAGACCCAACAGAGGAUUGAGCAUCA	0.424
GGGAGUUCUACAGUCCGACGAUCCACAAUCUCUACUUAAGUAGGUUUUUACAUACCAAGUUAAGCCUUCAUUUUACAUAUUUACAUCUUUUCUCCAGAGGAGAUAAAAGAAUCUCGUGCUUAAAGUUACAUGUGGUCUUUGCCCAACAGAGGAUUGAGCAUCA	0.347
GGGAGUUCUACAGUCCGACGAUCGCACAUGCCGCUAUCACCAAAAGCAAACUGCCACUUUUCAAAUUUCAUUCAGAGCUGUUUUAGUGUUUCCUAUUCCCUAACCUUCCCACUACUUUCAGUGAUGAAAUAGCCUAAGUUGUCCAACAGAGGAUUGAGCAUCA	1.44
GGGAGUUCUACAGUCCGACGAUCUCCCAGCACUUUGAUAAAAAAUGUAGACUGGUUGCUUGUAUUUUCCUUAUUCUUUUUAAUUAGUUUUAUUAUGUAUGCUACCGUUCGAACUGAGAGUAUUCGAUGGCUAAUUCCAGGACACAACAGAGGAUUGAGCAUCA	2.27
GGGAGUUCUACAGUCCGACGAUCCCUCCUGAACUUCUCUUGCUUUCAAGCUGUGGCUGUUUCAGAUACUGGUUUUAUUUUCUUUGCAGUUUUCCCCUGUUUCCCACCUUUCUCCCCUUCUUUCCAAGGUUUGACUCAUGGAUUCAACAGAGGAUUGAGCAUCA	0.774
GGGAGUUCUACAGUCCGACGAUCUACCCUCCCAGGACCCAGUGGUGCGGCCUGGGCCCACUGGCCACAUCAGCCAGGCCGUUUCAGCCUUUUUUUUUUUUUUUUUAAUAGUGCCCUUAUUAUUAUCCUAUACAUAUGCAGAGACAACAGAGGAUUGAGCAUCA	1.79

Repeated from above (study 3):
Strand	E-score
CGGGGTCC	0.0519
GCTCCACA	-0.064
CAAGTAGG	-0.0863
GACTCTGC	-0.0694
CATGCGGG	-0.0645
TGTTGTAA	-0.0282
CCAGACTA	0.0602
AGTAATTC	-0.139
CCACGACC	0.0403
